Published values gathered from unrelated publications.
Every numbered part comes from another study and shows a few of its results, in no order. Changes are numbered by the printed parent chain.
Chain of UniProt P11802 (whole entry, looked up): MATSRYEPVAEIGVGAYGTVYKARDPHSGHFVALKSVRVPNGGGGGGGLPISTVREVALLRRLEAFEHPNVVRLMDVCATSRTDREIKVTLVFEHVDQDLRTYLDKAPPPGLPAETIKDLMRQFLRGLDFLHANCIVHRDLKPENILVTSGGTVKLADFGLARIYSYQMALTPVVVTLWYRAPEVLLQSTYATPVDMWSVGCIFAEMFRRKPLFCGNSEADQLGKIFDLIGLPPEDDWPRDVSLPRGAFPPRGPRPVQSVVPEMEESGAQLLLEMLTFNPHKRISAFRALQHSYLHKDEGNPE

Set 1
Target: CCNE2, cyclin fold, Cln2 fusion (human)
Technique: yeast growth competition, sequencing
Sample: yeast
Setting: strong parent motif
Baseline: not given
Reading: higher = stronger binding
Quantity: normalised enrichment score
Parent: CDC25A docking peptide (human); PPHRRRLLFACSP; partner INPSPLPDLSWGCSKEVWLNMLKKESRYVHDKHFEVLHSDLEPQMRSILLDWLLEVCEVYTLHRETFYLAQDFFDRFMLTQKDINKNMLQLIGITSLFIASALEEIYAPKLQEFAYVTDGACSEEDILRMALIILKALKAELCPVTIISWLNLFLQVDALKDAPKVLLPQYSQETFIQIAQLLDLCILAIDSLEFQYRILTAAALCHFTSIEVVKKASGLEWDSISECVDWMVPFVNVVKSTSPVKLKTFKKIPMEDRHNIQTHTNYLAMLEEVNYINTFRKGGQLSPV
PAHRRRLLFACSP [P2A]: 1.07
PPHRRRLAFACSP [L8A]: 1.92
PPHRRRLLLACSP [F9L]: 0.944
PPHRRRTLFACSP [L7T]: 1.12
PPHRRRLLEACSP [F9E]: 1.09
PCHRRRLLFACSP [P2C]: 2.11
PMHRRRLLFACSP [P2M]: 1.54
TPHRRRLLFACSP [P1T]: 1.46

Set 2
Target: Histone acetyltransferase KAT6A, winged helix 1, GST fusion (KAT6A, Homo sapiens, UniProt Q92794, residues 1-85)
Technique: protein binding microarray
Molecule type: double-stranded DNA, one strand shown
Sample: in vitro
Tested at: not given
Setting: 8-mer, flanks averaged, mean of 2 arrays, mostly near background
Baseline: not given
Reading: higher = stronger binding
Quantity: E-score
Residues (chain): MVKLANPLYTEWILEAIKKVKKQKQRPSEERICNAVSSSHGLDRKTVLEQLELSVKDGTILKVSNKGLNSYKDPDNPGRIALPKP
AGACCGGC: 0.267
GTCACGTA: -0.0632
CGCGGCTA: 0.452
CCCCACAG: -0.166
GATCCCCC: -0.0812
AAACGACA: -0.063
CAATGAGG: -0.197
AGTGCTGG: -0.162

Set 3
Target: Eukaryotic initiation factor 4A-I (EIF4A1, Homo sapiens, UniProt P60842, residues 1-406, full length assumed)
Chain of UniProt P60842 (whole entry, looked up): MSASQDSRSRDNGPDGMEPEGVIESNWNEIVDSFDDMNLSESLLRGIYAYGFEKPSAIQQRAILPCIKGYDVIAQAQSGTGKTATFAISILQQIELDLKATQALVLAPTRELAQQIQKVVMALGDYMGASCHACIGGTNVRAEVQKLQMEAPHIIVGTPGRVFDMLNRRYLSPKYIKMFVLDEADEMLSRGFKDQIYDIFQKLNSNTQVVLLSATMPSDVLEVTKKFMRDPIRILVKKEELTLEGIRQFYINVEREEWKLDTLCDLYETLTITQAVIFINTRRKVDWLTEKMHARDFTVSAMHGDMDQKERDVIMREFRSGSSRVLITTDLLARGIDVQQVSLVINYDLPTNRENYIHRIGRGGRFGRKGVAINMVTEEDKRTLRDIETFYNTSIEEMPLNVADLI
Technique: RNA Bind-n-Seq
Molecule type: RNA
Sample: in vitro
Tested at: 90 pmol
Setting: 4-mer, random 30-nt RNA, single round
Added: 3 µM DMDA-PatA, 2 mM ADP, 2 mM phosphate
Baseline: input library
Reading: higher = stronger binding
Quantity: 4-mer enrichment
GUGA: 1.78 fold
CUAA: 0.686 fold
GGGG: 1.22 fold
GGGC: 1.2 fold
GAUU: 0.96 fold
GUUA: 1.11 fold
GACC: 0.625 fold
GUGC: 1.3 fold

Other studies, line by line
O=C1NC(=O)C(c2c[nH]c3ccccc23)=C1c1c[nH]c2ccccc12  remaining activity (Cyclin-dependent kinase 4, with cyclin D1 (CDK4, Homo sapiens, UniProt P11802); enzyme activity, inhibitor; 0.5 µM; baseline: control): 97.4%

For quick reference, copied from above (set 1):
TPHRRRLLFACSP [P1T]: 1.46
PAHRRRLLFACSP [P2A]: 1.07
PPHRRRTLFACSP [L7T]: 1.12
PPHRRRLLLACSP [F9L]: 0.944
